Assay results pooled from the literature.
Parts stem from different laboratories: compare values within a part only. Positions count from the first letter of the parent shown.

Block 1
Target: Interferon regulatory factor 5, full length, phosphomimetic (IRF5, Homo sapiens, UniProt Q13568-2, residues 1-514, S451D/S453D/S456D/S462D)
Method: protein-binding microarray
Molecule type: double-stranded DNA, one strand shown
Matrix: in vitro
Tested at: 940 nM top
Notes: 60-bp whole probe
With: salmon DNA 0.4 mg/ml
Relative to: random background probes
Reading: higher = stronger binding
Constant ends, left off below: GCCTAGCAC … GTCTTGATTCGCTTGACGCTGCTG
Under “fitted relative affinity”, `ACTAATTTTCAATTCCTGAAGTGCTAG` is recorded as 0.492 z-score.
`TCAGTTTTCATTATTGTACTGTGCTAG`: “fitted relative affinity” 1.95 z-score.
`AGACACCCCTTTGGTGCCACGTGCTAG`: “fitted relative affinity” -0.355 z-score.
`GACGGACTGGACTTTCGGGCCGTGCTA` — result for “fitted relative affinity”: -0.0695 z-score.
For `TACGGTTCCCTTTTCCTGACGTGCTAG`, “fitted relative affinity” read 0.812 z-score.
`TCAATGTTCACTATTTAACTGTGCTAG`: “fitted relative affinity” 0.464 z-score.
Under “fitted relative affinity”, `TTAGGTTTCAGTTTCGGTTAGTGCTAG` is recorded as 11.5 z-score.
`TCTGCTTTGCCTTCAGCCCGGTGCTAG`: “fitted relative affinity” -0.29 z-score.
Under “fitted relative affinity”, `TCACTTTTTTTTTTCCCACTGTGCTAG` is recorded as 1.54 z-score.
For `TATTATTTGCCTTGCATTTTGTGCTAG`, “fitted relative affinity” read 0.226 z-score.
`TGGGGTTCACTCCGGTACCCGTGCTAG`: “fitted relative affinity” -0.577 z-score.
`TCAATTTGGCATATCTAACTGTGCTAG` — result for “fitted relative affinity”: 0.0643 z-score.
Under “fitted relative affinity”, `TAAGGTCTCGGTCTCGGTTAGTGCTAG` is recorded as 4.16 z-score.
For `TTAGGTATGGACTATCGGTTAGTGCTA`, “fitted relative affinity” read -0.00308 z-score.
`TTAGGACTGGTGTATCGGTTAGTGCTA`: “fitted relative affinity” 0.888 z-score.
Under “fitted relative affinity”, `ATGCATGTGCTGTCTCAGAGTGTGCTA` is recorded as 0.169 z-score.

Block 2
Substance: PhoQ, residues 284 288 289 292 302 303 ALSMDL
Method: Sort-seq
Item: YFP reporter
Matrix: E. coli
Notes: PhoQ-PhoP variant library
With: 10 µM Mg2+
Relative to: high Mg2+ state
Reading: higher = stronger signaling
It gave 8.91 for fold induction (PhoP, residues 12 14 15 18 19 LHHYF (Escherichia coli, UniProt P23836)).
It gave 1.09 for fold induction (PhoP, residues 12 14 15 18 19 NFFVT (Escherichia coli, UniProt P23836)).
For PhoP, residues 12 14 15 18 19 VGHWL (Escherichia coli, UniProt P23836): fold induction read 2.2.
It gave 16.6 for fold induction (PhoP, residues 12 14 15 18 19 TPWTL (Escherichia coli, UniProt P23836)).

Block 3
Target: CCND2, cyclin fold, Cln2 fusion (human)
Method: yeast growth competition, sequencing
Matrix: yeast
Notes: weak parent motif
Relative to: not given
Reading: higher = stronger binding
Starting sequence: PLK5 docking peptide (human); IFRKVGQRLLTQC
For `Q12A`, “normalised enrichment score” read -0.216.
`F2A`: “normalised enrichment score” -0.292.
`L9A`: “normalised enrichment score” 0.0373.
`C13A` — result for “normalised enrichment score”: -0.521.
For `R3A`, “normalised enrichment score” read -0.245.
For `K4A`, “normalised enrichment score” read -0.388.
Under “normalised enrichment score”, `R8A` is recorded as -0.351.

Block 4
Target: ATF1, bZIP domain (human)
Method: DHFR protein complementation
Matrix: yeast
Notes: single substitutions, most at no-binding floor
Relative to: wild-type JUN-FOS pair
Reading: higher = stronger binding
Starting sequence: JUN, bZIP domain (human); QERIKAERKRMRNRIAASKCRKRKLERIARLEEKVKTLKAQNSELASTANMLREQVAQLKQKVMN; partner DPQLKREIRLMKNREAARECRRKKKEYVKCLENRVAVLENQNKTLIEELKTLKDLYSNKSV
With `K39V` the binding fitness was -1.46 natural log.
`R30F` has a binding fitness of -1.27 natural log.
`E33I` gave a binding fitness of -1.42 natural log.
`K39W` gave a binding fitness of -1.51 natural log.
`L45N` gave a binding fitness of -1.49 natural log.
`V56K` has a binding fitness of -1.51 natural log.
`I28A` gave a binding fitness of -1.53 natural log.
`A57T` has a binding fitness of -1.55 natural log.
With `Q55A` the binding fitness was -1.49 natural log.
The binding fitness of `K36S` is reported as -1.6 natural log.
`K39T` gave a binding fitness of -1.48 natural log.
The binding fitness of `R30K` is reported as -1.49 natural log.
`K34R` gave a binding fitness of -1.47 natural log.
The binding fitness of `A40Y` is reported as -1.38 natural log.
For `E32T`, the binding fitness was -1.54 natural log.
The binding fitness of `L52E` is reported as -1.51 natural log.
The binding fitness of `A40M` is reported as -1.52 natural log.
With `V56F` the binding fitness was -1.44 natural log.
With `A29Q` the binding fitness was -1.33 natural log.
For `R53T`, the binding fitness was -1.52 natural log.

A few entries again (block 4):
The binding fitness of `A40M` is reported as -1.52 natural log.
With `V56F` the binding fitness was -1.44 natural log.
